Measurements gathered from unrelated publications.
Numbers after ± are the reported error.
Ugcg: Ceramide glucosyltransferase (Ugcg, Mus musculus, UniProt O88693)
Sequence of UniProt O88693 (whole entry, looked up): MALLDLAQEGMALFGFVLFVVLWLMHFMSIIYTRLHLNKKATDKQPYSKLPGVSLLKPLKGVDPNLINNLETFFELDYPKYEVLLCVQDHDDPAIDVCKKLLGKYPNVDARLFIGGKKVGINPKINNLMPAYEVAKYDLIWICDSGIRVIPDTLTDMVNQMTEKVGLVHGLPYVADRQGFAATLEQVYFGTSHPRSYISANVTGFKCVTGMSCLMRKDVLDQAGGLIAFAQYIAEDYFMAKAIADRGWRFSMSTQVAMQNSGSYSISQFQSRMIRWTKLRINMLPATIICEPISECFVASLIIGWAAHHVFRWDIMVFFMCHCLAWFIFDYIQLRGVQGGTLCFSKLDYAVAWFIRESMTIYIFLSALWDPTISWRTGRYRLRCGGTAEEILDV
DRD3: D(3) dopamine receptor (DRD3, Homo sapiens, UniProt P35462)
Sequence of UniProt P35462 (whole entry, looked up): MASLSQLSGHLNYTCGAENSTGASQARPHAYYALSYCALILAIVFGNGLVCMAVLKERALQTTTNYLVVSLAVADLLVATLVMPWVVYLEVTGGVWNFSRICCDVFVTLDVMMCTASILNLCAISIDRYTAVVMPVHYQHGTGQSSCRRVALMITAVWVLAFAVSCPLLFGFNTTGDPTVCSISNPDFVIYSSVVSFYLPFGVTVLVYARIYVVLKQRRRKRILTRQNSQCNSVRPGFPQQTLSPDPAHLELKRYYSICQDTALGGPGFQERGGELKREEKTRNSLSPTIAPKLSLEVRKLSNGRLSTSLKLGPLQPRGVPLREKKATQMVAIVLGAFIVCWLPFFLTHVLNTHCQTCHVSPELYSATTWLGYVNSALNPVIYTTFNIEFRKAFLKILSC
RAD52: DNA repair protein RAD52 homolog (RAD52, Homo sapiens, UniProt P43351)
Sequence of UniProt P43351 (whole entry, looked up): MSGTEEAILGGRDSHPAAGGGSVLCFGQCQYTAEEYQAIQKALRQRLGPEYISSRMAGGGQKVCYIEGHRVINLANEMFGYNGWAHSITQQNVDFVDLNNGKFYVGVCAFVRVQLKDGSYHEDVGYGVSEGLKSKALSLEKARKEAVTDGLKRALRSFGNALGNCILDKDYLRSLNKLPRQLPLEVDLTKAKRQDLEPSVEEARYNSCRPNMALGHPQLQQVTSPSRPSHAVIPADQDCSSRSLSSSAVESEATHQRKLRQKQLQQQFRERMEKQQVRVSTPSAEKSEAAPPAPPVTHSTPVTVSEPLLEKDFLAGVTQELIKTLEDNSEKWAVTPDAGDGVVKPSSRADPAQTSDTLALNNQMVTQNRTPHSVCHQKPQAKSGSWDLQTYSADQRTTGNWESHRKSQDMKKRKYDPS
Sequence of UniProt Q16620 (whole entry, looked up): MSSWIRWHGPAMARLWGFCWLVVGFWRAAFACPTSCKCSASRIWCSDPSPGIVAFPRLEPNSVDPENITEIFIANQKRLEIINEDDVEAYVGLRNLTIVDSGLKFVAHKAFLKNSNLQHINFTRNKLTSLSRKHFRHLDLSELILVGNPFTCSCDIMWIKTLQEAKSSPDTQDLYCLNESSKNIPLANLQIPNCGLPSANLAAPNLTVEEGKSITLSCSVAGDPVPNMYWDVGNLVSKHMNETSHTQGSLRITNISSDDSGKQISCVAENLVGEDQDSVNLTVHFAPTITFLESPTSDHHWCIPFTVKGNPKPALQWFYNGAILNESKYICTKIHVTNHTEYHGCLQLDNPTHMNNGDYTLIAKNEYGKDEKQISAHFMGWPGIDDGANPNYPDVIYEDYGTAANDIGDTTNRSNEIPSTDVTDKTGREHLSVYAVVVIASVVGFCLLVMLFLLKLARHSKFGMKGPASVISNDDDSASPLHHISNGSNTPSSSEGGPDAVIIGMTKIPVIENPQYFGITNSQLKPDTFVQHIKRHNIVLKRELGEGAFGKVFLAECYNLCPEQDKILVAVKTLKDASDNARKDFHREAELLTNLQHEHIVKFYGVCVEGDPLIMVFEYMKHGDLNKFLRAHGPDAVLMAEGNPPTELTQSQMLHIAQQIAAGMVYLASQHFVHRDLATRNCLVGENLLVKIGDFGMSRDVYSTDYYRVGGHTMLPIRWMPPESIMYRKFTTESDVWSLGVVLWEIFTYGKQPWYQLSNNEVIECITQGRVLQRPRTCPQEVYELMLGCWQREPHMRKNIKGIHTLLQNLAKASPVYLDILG
Sequence of UniProt Q12884 (whole entry, looked up): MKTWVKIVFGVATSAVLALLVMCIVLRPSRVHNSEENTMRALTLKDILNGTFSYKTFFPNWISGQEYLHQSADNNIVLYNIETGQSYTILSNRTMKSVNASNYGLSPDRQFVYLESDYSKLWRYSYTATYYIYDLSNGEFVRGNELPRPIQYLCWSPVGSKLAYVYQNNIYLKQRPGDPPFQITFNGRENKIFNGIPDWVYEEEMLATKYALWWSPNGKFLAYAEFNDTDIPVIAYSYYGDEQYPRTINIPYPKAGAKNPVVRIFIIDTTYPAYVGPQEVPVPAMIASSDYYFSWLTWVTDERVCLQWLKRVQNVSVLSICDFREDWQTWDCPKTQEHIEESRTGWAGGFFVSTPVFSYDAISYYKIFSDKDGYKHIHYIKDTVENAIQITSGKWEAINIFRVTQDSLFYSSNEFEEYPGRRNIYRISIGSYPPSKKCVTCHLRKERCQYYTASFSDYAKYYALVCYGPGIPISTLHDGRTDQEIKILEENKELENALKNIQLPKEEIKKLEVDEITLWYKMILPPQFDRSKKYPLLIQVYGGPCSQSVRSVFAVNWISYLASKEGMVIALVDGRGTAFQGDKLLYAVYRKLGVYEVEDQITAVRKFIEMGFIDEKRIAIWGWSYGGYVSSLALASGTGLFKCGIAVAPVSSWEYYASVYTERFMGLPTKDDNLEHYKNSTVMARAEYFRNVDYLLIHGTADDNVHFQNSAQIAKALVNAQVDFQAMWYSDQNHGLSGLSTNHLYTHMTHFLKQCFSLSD
Sequence of UniProt P35354 (whole entry, looked up): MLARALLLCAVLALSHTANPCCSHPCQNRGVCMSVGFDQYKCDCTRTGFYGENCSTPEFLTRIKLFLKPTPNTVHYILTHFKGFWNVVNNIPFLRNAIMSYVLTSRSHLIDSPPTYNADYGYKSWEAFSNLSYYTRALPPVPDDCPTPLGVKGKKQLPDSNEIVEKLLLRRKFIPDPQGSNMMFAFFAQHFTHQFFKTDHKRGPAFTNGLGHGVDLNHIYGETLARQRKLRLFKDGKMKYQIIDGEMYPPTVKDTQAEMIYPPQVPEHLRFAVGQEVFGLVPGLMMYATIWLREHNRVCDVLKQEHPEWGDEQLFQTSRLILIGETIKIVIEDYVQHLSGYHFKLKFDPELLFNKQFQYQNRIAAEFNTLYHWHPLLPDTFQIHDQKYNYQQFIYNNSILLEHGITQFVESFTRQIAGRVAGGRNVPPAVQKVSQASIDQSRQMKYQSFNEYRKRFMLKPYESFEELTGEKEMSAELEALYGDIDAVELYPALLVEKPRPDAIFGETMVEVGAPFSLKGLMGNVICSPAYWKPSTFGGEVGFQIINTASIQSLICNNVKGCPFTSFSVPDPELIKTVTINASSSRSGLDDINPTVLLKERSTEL
Sequence of UniProt P21695 (whole entry, looked up): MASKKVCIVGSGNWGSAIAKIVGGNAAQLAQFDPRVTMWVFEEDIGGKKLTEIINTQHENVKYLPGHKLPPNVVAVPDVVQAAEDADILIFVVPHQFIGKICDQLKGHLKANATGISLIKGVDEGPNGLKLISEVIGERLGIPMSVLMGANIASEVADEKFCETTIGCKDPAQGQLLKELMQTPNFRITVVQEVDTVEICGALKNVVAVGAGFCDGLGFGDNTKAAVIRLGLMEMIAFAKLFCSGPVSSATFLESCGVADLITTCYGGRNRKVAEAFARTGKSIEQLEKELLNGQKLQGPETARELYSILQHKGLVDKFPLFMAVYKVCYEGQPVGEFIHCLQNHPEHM
Sequence of UniProt P35346 (whole entry, unmodified, looked up): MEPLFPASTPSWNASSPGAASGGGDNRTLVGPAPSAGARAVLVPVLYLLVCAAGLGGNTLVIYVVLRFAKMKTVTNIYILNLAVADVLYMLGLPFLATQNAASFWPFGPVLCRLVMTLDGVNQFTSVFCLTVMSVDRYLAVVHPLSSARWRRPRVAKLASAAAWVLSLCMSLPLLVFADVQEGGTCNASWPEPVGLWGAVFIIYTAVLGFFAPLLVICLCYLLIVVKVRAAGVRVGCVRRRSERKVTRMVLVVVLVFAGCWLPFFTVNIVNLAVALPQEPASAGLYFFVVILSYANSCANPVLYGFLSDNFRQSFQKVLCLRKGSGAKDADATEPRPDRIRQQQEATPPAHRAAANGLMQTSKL
Sequence of UniProt O96017 (whole entry, looked up): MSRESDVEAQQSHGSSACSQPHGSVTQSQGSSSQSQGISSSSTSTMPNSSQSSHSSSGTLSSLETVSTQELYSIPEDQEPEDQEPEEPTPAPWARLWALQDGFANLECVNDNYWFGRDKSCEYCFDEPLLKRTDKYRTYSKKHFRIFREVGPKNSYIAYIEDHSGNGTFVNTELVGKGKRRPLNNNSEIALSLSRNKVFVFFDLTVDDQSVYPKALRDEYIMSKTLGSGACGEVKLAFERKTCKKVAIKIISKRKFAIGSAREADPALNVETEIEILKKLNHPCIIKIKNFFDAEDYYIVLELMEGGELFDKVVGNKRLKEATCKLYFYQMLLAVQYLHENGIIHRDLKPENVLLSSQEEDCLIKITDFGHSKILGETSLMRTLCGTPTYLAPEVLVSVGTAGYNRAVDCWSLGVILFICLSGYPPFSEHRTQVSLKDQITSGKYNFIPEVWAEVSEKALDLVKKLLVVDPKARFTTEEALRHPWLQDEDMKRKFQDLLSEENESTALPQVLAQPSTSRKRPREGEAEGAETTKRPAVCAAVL

| Compound | tested on | test | test system | conditions | endpoint | result |
| --- | --- | --- | --- | --- | --- | --- |
| OC[C@@H]1[C@@H](O)[C@H](O)[C@@H](O)CN1CCCCCOCc1ccc(-c2ccnc(F)c2)cc1 | Ugcg | enzyme activity, inhibitor, fluorescence | – | – | IC50 | 150 nM |
| C=CC(=O)Nc1cc(Nc2ncnc(Nc3ccccc3S(N)(=O)=O)n2)c(OC)cc1N(C)CCN(C)C | Epidermal growth factor receptor (EGFR, Homo sapiens, UniProt P00533, L858R/T790M) | enzyme activity, inhibitor | – | – | IC50 | 0.61 nM |
| Cc1cc(=O)oc2ccc(OCC(=O)Nc3cc(C(F)(F)F)c4cn[nH]c4c3)cc12 | Cytosolic phospholipase A2 (PLA2G4A, Homo sapiens, UniProt P47712) | enzyme activity, inhibitor, fluorescence | – | – | IC50 | 3180 nM |
| CC(C)=CCC1CC2=C(OC(C)(C)C(O)C2)C2(C(=O)C(C)C)C1(C)CCC1C(C)(C)OC(=O)C12O (stereo not drawn) | Beta-secretase 1 (Mus musculus, UniProt P56818) | enzyme activity in cells, inhibitor | – | – | IC50 | 1030 nM |
| OC[C@H]1[C@@H](O)[C@H](O)[C@@H](O)CN1CCCCOCCC12CC3CC(CC(C3)C1)C2 | Ugcg | enzyme activity, inhibitor, fluorescence | – | – | IC50 | 1340 nM |
| N#CCNC(=O)c1ccc([C@H]2[C@@H](F)[C@@H](F)C[C@@H](F)[C@H]2F)cc1 | – | liver microsome stability | rat liver microsomes | 1 µM | hepatic clearance | 6.1 mL/min/kg |
| COCC1CN(C2CCN(c3cc(OC)c(Nc4ncc(Br)c(Nc5ccc6c(c5P(C)(C)=O)OCCO6)n4)cc3C)CC2)C1 | Epidermal growth factor receptor (EGFR, Homo sapiens, UniProt P00533, C797S/del746-750) | kinase activity, TR-FRET | – | added: ATP at Km | IC50 | 1.23 nM |
| CC(C)(C)c1ccc(NC(=O)c2cnn(-c3ccc([N+](=O)[O-])cc3)c2C(F)(F)F)cc1 | Prostaglandin G/H synthase 2 (PTGS2, Homo sapiens, UniProt P35354) | enzyme activity, inhibitor | – | – | IC50 | 9030 nM |
| CCOc1cc(CN2CC3(CC(N4CCC(C(=O)O)CC4)=NO3)C2)cc(OCC)c1-c1ccc(F)cc1 | Somatostatin receptor type 5 (SSTR5, Homo sapiens, UniProt P35346, N100T/Q99S) | cAMP level, agonist, GloSensor | AD293 | Q99S/N100T mutant, added: CST17 EC80 and forskolin | IC50 | 2140 nM |
| Cc1ccc(NS(=O)(=O)c2c(C)[nH]c(C)c2C(=O)N2CCCC2)cc1F | DRD3 | Go activation, antagonist, BRET | – | added: dopamine | IC50 | 10000 ± 1100 nM |
| COc1ccc(-c2nc(C(=O)NCCCN3CCOCC3)cc3c2[nH]c2ccccc23)cc1OC | RAD52 | D-loop formation | – | added: RAD52 450 nM | IC50 | 7200 ± 280 nM |
| CC1(C)C(=O)N=C2C1=C(O)C(=O)c1ccccc12 | Protein arginine N-methyltransferase 3 (PRMT3, Homo sapiens, UniProt O60678) | enzyme activity, inhibitor | – | – | IC50 | 1100 nM |
| NNC1(c2nnnn2CCc2c[nH]c3ccccc23)CCN(C(=O)OCc2ccccc2)CC1 | Endothiapepsin (EAPA, Cryphonectria parasitica, UniProt P11838) | enzyme activity, inhibitor, fluorescence | – | – | IC50 | 75700 nM |
| OC[C@@H]1[C@@H](O)[C@H](O)[C@@H](O)c2nccn21 | Lysosomal alpha-glucosidase (GAA, Homo sapiens, UniProt P10253) | – | – | pH 4.8 | IC50 | > 100000 nM |
| OC[C@H]1[C@@H](O)[C@H](O)[C@@H](O)CN1CCCCCOCc1ccc(-c2ccccc2)c(C(F)(F)F)c1 | Ugcg | enzyme activity, inhibitor, fluorescence | – | – | IC50 | 3 nM |
| CCCCN(CC)CCCNC(=S)Nc1ccc2nc(N3CCN(C)CC3)cc(C)c2c1 | RAD52 | ssDNA annealing, fluorescence quenching | – | – | IC50 | 2000 nM |
| N#C[C@@H]1CC(F)(F)CN1C(=O)CNC(=O)c1ccnc2ccc(OCCCN3CCN(C(=S)Nc4ccc(C[C@H]5CN(Cc6ccccn6)CCN(Cc6ccccn6)CCN(Cc6ccccn6)CCN5Cc5ccccn5)cc4)CC3)cc12 | Prolyl endopeptidase FAP (FAP, Homo sapiens, UniProt Q12884) | enzyme activity, inhibitor, fluorescence | – | – | IC50 | 2.29 nM |
| COc1ccc(Nc2cc(NC3CC3)n3ncc(C#N)c3n2)cc1 | Serine/threonine-protein kinase Chk2 (CHEK2, Homo sapiens, UniProt O96017) | inhibitor | – | – | IC50 | > 10000 nM |

| Compound | tested on | test | test system | conditions | endpoint | result |
| --- | --- | --- | --- | --- | --- | --- |
| CCCN(CCC)CCCNC(=S)Nc1ccc2nc(N3CCN(C)CC3)cc(C)c2c1 | RAD52 | ssDNA annealing, fluorescence quenching | – | – | IC50 | 6000 nM |
| Cc1[nH]c(C)c(S(=O)(=O)Nc2ccc(F)cc2)c1C(=O)N1CCCC1 | DRD3 | Go activation, antagonist, BRET | – | added: dopamine | IC50 | 9700 ± 1100 nM |
| OC[C@H]1[C@@H](O)[C@H](O)[C@@H](O)CN1CCCCCOCc1cccc(-c2ccccc2)c1 | Ugcg | enzyme activity, inhibitor, fluorescence | – | – | IC50 | 70 nM |
| CCn1nc(Cl)c2c1-c1cnc(N)c(c1)O[C@H](C)c1cc(F)ccc1-c1nn(C)cc1C2 | Tyrosine-protein kinase Fes/Fps (FES, Homo sapiens, UniProt P07332) | enzyme activity, inhibitor, radiometric | – | – | IC50 | 415 nM |
| OC[C@@H]1[C@@H](O)[C@H](O)[C@@H](O)CN1CCCCCOCC(COCCCCCN1C[C@H](O)[C@@H](O)[C@H](O)[C@H]1CO)C12CC3CC(CC(C3)C1)C2 | Ugcg | enzyme activity, inhibitor, fluorescence | – | – | IC50 | 40000 nM |
| Cc1nn(-c2cccc(N)c2)c(=O)c2cnc(Nc3ccc(N4CCNCC4)cc3)nc12 | BDNF/NT-3 growth factors receptor (NTRK2, Homo sapiens, UniProt Q16620) | enzyme activity, inhibitor | – | – | IC50 | > 10000 nM |
| OC[C@@H]1[C@@H](O)[C@H](O)[C@@H](O)CN1CCCCCOCc1ccc(-c2ccncc2)cc1 | Ugcg | enzyme activity, inhibitor, fluorescence | – | – | IC50 | 2000 nM |
| O=C(Nc1ccc(CSc2ncccn2)cc1)c1ccc([N+](=O)[O-])cc1 | Apelin receptor (APLNR, Homo sapiens, UniProt P35414) | β-arrestin recruitment, antagonist | – | – | IC50 | > 100000 nM |
| OC[C@@H]1[C@@H](O)[C@H](O)[C@@H](O)CN1CCCCCOCC12CC3CC(C1)CC(COCCCCCN1C[C@H](O)[C@@H](O)[C@H](O)[C@H]1CO)(C3)C2 | Ugcg | enzyme activity, inhibitor, fluorescence | – | – | IC50 | 20000 nM |
| Fc1ccc(Nc2nc(NC3CCCCC3)c3cc(C(F)(F)F)ccc3n2)cc1F | Beta-2 adrenergic receptor (ADRB2, Homo sapiens, UniProt P07550, I159A) | β-arrestin2 recruitment, antagonist, BRET | HEK293 | mutant I159A, added: isoprenaline 1 µM | IC50 | 200 nM |
| CCN(CC)CC(=O)Nc1cccc(-n2cc(-c3ccc4ccc(-c5cn(-c6cccc(NC(=O)CN(CC)CC)c6)nn5)cc4c3)nn2)c1 | Casein kinase I isoform gamma-3 (CSNK1G3, Homo sapiens, UniProt Q9Y6M4) | enzyme activity, inhibitor | – | – | IC50 | > 10000 nM |
| Cc1cc(C)nc(NC(=S)N2CCN(c3ccncc3)CC2)c1 | GPD1 (Homo sapiens, UniProt P21695) | enzyme activity, inhibitor | – | – | IC50 | > 100000 nM |
| C[C@@H]1Cc2c([nH]c3ccccc23)[C@@H](c2c(F)cc(/C=C/C(=O)O)cc2F)N1C12CC(C1)C2 | Androgen receptor (AR, Homo sapiens, UniProt P10275) | antagonist, cell-based | – | – | IC50 | > 3000 nM |
| O=C(CC1CCOCC1)Nc1ccc([C@H]2[C@@H](F)[C@@H](F)C[C@@H](F)[C@H]2F)cc1 | – | hepatocyte stability | cryopreserved human hepatocytes | 1 µM | hepatic clearance | 6.2 mL/min/kg |
| CS(=O)(=O)Nc1cccc(-c2csc3cnc(Nc4ccc(N5CCN(CCCCCOc6cccc7c6C(=O)N(C6CCC(=O)NC6=O)C7=O)CC5)cc4)nc23)c1 (stereo not drawn) | Serine/threonine-protein kinase Nek9 (NEK9, Homo sapiens, UniProt Q8TD19) | enzyme activity, inhibitor, FRET | – | – | IC50 | 39 nM |
| CCN(CC)CCCN(Cc1cc2cc3c(cc2[nH]c1=O)OCO3)C(=S)NCCCN(C)C | RAD52 | ssDNA annealing, fluorescence quenching | – | – | IC50 | 5200 nM |
| COc1ccccc1-c1ccc(COCCCCCN2C[C@H](O)[C@@H](O)[C@H](O)[C@H]2CO)cc1 | Ugcg | enzyme activity, inhibitor, fluorescence | – | – | IC50 | 50 nM |
| CNCc1ccc2c(c1)N(C(=O)OCc1ccccc1)[C@H](CNC(=N)N)[C@H]2NC(=O)C(=O)Nc1ccc(Cl)c(F)c1 | env (Human immunodeficiency virus 1, UniProt Q2N0S5) | HIV-1 infection | Cf2Th-CD4/CCR5 cells | 48 h | IC50 | 28300 nM |

A few entries again:
| Compound | tested on | test | test system | conditions | endpoint | result |
| --- | --- | --- | --- | --- | --- | --- |
| Fc1ccc(Nc2nc(NC3CCCCC3)c3cc(C(F)(F)F)ccc3n2)cc1F | Beta-2 adrenergic receptor (ADRB2, Homo sapiens, UniProt P07550, I159A) | β-arrestin2 recruitment, antagonist, BRET | HEK293 | mutant I159A, added: isoprenaline 1 µM | IC50 | 200 nM |
| CCN(CC)CC(=O)Nc1cccc(-n2cc(-c3ccc4ccc(-c5cn(-c6cccc(NC(=O)CN(CC)CC)c6)nn5)cc4c3)nn2)c1 | Casein kinase I isoform gamma-3 (CSNK1G3, Homo sapiens, UniProt Q9Y6M4) | enzyme activity, inhibitor | – | – | IC50 | > 10000 nM |
